Published values of several laboratories.
A part holds a random share of what one study measured. Several values in a cell are separate wells, animals, samples, runs or records. ± gives the spread as reported.
UniProt P51812, sequence (whole entry, looked up): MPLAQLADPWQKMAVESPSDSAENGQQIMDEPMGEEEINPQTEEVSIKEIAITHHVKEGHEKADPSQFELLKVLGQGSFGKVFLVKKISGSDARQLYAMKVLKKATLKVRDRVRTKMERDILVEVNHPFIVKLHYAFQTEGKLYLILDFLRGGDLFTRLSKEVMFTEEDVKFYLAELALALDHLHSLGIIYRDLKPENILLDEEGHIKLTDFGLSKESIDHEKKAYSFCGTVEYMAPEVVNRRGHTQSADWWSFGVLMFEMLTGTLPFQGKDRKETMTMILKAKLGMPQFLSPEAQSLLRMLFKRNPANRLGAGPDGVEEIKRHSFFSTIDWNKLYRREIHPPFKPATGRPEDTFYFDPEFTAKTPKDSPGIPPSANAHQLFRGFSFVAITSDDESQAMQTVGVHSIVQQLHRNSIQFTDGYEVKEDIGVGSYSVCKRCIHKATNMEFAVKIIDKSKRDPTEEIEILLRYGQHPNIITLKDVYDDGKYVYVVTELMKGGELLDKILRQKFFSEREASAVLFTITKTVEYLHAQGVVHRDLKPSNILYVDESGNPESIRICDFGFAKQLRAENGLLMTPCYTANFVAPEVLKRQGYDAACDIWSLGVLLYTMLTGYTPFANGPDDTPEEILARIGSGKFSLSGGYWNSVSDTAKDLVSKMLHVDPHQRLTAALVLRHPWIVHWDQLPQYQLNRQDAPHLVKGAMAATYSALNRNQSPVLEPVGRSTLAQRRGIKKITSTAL
UniProt P42681, sequence (whole entry, looked up): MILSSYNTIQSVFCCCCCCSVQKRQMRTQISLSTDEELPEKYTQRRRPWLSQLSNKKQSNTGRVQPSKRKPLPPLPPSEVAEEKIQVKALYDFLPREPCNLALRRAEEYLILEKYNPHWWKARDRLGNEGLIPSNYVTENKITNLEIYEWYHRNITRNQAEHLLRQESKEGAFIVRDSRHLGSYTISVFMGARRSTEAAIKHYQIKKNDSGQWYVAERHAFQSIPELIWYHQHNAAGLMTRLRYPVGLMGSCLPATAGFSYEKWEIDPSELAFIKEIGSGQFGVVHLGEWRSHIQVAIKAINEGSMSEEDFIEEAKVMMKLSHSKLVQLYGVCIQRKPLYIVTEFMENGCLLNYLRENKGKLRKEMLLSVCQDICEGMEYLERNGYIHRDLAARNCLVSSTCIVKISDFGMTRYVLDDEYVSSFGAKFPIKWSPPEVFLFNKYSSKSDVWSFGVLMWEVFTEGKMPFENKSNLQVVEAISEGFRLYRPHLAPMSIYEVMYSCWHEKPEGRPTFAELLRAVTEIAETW
UniProt Q8TD08, sequence (whole entry, looked up): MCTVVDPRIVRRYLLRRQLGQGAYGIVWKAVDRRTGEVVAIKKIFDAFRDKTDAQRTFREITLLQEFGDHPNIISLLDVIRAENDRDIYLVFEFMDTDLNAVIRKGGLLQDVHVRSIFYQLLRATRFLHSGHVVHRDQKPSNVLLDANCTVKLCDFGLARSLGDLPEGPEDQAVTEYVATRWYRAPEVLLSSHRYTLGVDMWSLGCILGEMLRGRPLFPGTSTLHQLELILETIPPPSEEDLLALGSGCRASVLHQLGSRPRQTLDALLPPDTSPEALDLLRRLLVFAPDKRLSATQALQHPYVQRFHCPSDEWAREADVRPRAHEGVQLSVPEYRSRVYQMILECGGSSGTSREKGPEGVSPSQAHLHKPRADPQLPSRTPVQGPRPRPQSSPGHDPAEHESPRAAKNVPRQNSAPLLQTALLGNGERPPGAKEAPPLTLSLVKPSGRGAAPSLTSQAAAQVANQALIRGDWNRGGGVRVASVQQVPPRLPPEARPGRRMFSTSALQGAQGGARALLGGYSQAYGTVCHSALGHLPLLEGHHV
UniProt Q9UBE8, sequence (whole entry, looked up): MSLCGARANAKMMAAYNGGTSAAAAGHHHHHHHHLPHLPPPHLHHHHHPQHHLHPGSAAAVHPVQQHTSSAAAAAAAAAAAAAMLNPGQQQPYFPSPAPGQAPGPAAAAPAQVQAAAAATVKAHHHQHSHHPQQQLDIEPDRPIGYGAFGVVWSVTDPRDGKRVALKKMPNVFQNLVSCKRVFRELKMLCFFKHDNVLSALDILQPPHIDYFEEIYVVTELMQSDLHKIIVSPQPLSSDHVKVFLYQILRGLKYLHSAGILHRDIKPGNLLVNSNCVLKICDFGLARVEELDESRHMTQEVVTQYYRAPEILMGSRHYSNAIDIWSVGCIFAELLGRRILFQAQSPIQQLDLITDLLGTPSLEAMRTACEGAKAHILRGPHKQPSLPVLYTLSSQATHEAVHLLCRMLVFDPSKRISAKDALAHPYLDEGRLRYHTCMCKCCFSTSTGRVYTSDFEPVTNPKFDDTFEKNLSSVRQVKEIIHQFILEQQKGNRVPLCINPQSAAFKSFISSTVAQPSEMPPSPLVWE
UniProt Q9P0L2, sequence (whole entry, looked up): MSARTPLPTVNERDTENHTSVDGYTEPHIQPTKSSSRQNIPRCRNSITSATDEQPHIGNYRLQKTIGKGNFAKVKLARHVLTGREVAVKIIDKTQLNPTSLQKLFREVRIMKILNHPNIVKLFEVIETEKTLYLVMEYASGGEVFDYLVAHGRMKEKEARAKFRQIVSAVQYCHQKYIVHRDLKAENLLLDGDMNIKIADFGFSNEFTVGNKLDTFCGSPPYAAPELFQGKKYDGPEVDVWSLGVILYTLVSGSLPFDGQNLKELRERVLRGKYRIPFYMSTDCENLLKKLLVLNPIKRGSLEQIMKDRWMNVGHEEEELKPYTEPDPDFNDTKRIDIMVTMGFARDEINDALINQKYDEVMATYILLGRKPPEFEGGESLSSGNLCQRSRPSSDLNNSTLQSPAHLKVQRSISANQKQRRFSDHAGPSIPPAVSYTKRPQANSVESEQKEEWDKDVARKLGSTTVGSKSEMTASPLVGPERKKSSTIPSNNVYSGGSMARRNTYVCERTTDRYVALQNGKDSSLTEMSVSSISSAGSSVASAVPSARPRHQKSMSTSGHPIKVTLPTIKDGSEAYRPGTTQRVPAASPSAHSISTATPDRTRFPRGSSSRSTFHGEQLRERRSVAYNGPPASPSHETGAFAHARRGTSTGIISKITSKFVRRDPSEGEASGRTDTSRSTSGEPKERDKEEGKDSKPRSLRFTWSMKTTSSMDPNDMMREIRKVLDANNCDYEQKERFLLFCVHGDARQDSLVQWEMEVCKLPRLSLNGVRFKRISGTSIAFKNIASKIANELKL
UniProt Q9P286, sequence (whole entry, looked up): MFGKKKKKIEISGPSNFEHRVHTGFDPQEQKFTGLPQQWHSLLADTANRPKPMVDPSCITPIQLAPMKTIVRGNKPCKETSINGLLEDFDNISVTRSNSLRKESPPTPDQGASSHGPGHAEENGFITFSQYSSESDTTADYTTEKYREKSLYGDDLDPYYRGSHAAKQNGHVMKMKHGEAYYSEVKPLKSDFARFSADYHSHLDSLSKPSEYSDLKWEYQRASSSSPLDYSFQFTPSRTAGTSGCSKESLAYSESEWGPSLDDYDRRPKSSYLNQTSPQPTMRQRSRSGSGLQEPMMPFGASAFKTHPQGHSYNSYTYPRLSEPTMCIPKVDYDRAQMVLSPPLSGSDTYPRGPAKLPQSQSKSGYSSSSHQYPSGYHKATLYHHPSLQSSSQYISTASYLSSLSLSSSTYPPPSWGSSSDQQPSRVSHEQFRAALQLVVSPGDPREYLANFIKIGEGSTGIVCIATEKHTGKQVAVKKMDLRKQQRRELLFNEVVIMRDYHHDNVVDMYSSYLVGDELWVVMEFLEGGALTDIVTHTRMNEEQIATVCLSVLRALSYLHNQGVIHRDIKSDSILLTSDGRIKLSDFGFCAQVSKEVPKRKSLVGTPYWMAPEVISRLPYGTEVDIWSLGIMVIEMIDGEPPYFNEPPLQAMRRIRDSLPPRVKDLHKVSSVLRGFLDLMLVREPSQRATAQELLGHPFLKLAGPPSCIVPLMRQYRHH
UniProt Q13163, sequence (whole entry, looked up): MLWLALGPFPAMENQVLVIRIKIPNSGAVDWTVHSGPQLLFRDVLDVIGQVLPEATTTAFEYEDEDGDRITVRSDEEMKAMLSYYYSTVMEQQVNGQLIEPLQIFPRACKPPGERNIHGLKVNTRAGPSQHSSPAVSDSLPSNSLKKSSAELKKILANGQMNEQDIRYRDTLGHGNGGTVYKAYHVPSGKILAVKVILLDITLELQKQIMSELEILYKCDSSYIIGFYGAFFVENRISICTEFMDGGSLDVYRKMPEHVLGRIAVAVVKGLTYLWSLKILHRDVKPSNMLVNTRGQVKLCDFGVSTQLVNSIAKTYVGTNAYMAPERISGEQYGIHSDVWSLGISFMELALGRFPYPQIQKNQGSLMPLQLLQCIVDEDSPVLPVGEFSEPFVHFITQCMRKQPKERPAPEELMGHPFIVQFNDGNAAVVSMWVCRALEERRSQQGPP

Block 1
SMILES: CN1CCC[C@H]1COc1nc2c(c(N3CCN(C(=O)C4CC4)[C@@H](CC#N)C3)n1)CCN(c1cccc3cccc(Cl)c13)C2
Effect on: binding
Mode: competitor
Technique: NanoBRET
Cells: HEK293
Quantity: normalized BRET
KRAS Q61H: GTPase KRas (KRAS, Homo sapiens, UniProt P01116, Q61H)
GTPase KRas (KRAS, Homo sapiens, UniProt P01116, G13D); 33.3 µM: 6.24% and 4.68% and 3.96%
GTPase KRas (KRAS, Homo sapiens, UniProt P01116, G12D); 5.08 nM: 109% and 102% and 99.1%
KRAS Q61H; 5.08 nM: 96.3% and 98.1% and 98%
KRAS Q61H; 137 nM: 96.9% and 98.6% and 96.3%
KRAS Q61H; 15.2 nM: 96.3% and 100% and 103%
KRAS Q61H; 1.69 nM: 99.7% and 95.2% and 95.9%

Block 2
Compound: COc1cc(-c2nc3ccc(C(=O)NCCCN4CCN(c5cccc(C)c5C)CC4)cc3n2C2CCC2)cc(OC)c1OC
Effect on: binding
Technique: competition with immobilised ligand
Concentration: 1 µM
Quantity: remaining binding
Tyrosine-protein kinase ABL1, phosphorylated (ABL1, Homo sapiens, UniProt P00519, Y253F): 86%
Mitogen-activated protein kinase 15 (MAPK15, Homo sapiens, UniProt Q8TD08): 99%
Serine/threonine-protein kinase PAK 5 (PAK5, Homo sapiens, UniProt Q9P286): 95%
Dual specificity mitogen-activated protein kinase kinase 5 (MAP2K5, Homo sapiens, UniProt Q13163): 93%
Tyrosine-protein kinase TXK (TXK, Homo sapiens, UniProt P42681): 67%
Serine/threonine-protein kinase MARK1 (MARK1, Homo sapiens, UniProt Q9P0L2): 87%
Serine/threonine-protein kinase NLK (NLK, Homo sapiens, UniProt Q9UBE8): 81%
Ribosomal protein S6 kinase alpha-3, C-terminal kinase domain (RPS6KA3, Homo sapiens, UniProt P51812): 77%

Block 3
Target: Sodium-dependent neutral amino acid transporter B(0)AT1 (SLC6A19, Homo sapiens, UniProt Q695T7)
UniProt Q695T7, sequence (whole entry, looked up): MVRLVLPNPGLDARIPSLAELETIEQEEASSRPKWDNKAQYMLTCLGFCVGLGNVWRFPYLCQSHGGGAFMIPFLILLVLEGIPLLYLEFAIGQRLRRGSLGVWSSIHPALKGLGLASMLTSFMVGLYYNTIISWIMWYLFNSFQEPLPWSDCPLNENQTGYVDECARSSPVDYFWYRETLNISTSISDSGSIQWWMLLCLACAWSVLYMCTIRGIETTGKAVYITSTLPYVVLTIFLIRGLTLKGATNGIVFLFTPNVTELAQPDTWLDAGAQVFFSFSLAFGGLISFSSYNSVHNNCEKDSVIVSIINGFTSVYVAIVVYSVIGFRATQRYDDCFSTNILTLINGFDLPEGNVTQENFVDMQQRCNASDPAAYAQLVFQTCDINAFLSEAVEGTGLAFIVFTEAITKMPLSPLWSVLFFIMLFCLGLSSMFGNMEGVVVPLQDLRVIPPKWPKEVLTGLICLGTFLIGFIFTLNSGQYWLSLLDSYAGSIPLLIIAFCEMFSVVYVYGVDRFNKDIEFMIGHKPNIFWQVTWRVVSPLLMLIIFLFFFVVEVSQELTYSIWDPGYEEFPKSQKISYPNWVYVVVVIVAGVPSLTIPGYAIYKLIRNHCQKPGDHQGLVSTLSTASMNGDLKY
Mode: inhibitor
Technique: FLIPR membrane potential
Cells: CHO-BC
Together with: 1.5 mM L-leucine
Quantity: IC50
CCNC(=O)CNc1ccc(Br)c(C)c1: 31 ± 2 nM
CCCNC(=O)CNc1ccc(I)c(C)c1: 34 ± 5 nM
Cc1cc(NCC(=O)NC(C)C)ccc1I: 27 ± 5 nM
CCCNC(=O)COc1ccc(I)c(C)c1: 43 ± 8 nM
Cc1cc(NCC(=O)NC(C)C)ccc1Br: 90 ± 10 nM
CCNC(=O)COc1cc(C)c(Cl)c(C)c1: 620 ± 70 nM
CCNC(=O)COc1ccc(Br)c(C)c1: 81 ± 6 nM
Cc1cc(NCC(=O)NC(C)C)cc(C)c1I: 99 ± 5 nM

Other studies, line by line
Cn1cc(-c2cccc(CN3CCC4(CC3)COc3c4ccc4c3CN([C@H]3CCC(=O)NC3=O)C4=O)c2)cn1  tumour volume (Crbn I391V mouse, MC-38 tumour; 30 mg/kg, day 11, together with: anti-LAG3 antibody 10 mg/kg weekly): 770 mm3 and 374 mm3 and 916 mm3 and 273 mm3

Excerpt of the above (block 3):
Cc1cc(NCC(=O)NC(C)C)ccc1I: 27 ± 5 nM
CCCNC(=O)COc1ccc(I)c(C)c1: 43 ± 8 nM
